Measured values gathered from unrelated publications.
Protocols differ between the studies behind these lines. “And” joins repeats or separate records; there may be more than shown.

COc1cc(N2CCC(N3CCN(C)CC3)CC2)ccc1Nc1ncc(Cl)c(Nc2ccccc2P(C)(C)=O)n1
body weight (nude mice, NCI-H3122 xenograft; intraperitoneal, 10 mg/kg every other day, day 15): 25 g and 26.5 g and 23.9 g and 22.9 g and 23.8 g

Cc1cnc(Nc2ccc(OCCN3CCCC3)cc2)nc1Nc1cccc(S(=O)(=O)NC(C)(C)C)c1
body weight (BALB/c mice, rhEPO-induced polycythemia; 120 mg/kg, day 1): 18.3 g and 19.4 g and 18.4 g and 17.7 g and 17.9 g and 19.3 g

COc1ccc(CNc2nc(-c3ccc(C(=O)O)cc3)nc3c2c2ccccc2n3C)cc1Cl
body weight (NSG mice; dose not given, day 5): 24.9 g and 21 g and 25.4 g and 24.2 g

Cc1nc(-c2ccc(OCC(C)C)c(C#N)c2)sc1C(=O)O
body weight (KM mouse, chronic hyperuricaemia model; dose not given, day 25): 33.4 g and 38.2 g and 41 g and 35.6 g and 39.4 g and 44.2 g

C1=C/COCc2cc(ccc2OCCN2CCCC2)Nc2nccc(n2)-c2cccc(c2)COC/1
body weight (BALB/c mice, rhEPO-induced polycythemia; 120 mg/kg, day 1): 18 g and 18.2 g and 18.4 g and 20.2 g and 18.6 g and 17.7 g

CCc1nn(C)c2nc(-c3ccc(C(=O)O)cc3)nc(NCc3ccc(F)cc3)c12
body weight (NSG mice; dose not given, day 1 of treatment): 20.4 g and 20.5 g and 19.2 g and 19.3 g

CCCCc1nc2cc(/C=C/C(=O)NO)ccc2n1CCN(CC)CC
body weight (mouse, MV4-11 xenograft; 50 mg/kg daily, day 21; baseline: baseline): 92.9%

COc1ccc(CNc2nc(-c3ccc(C(=O)O)cc3)nc3sc4ccccc4c23)cc1Cl
body weight (NSG mice; dose not given, day 4): 18 g and 21.3 g and 20 g and 19.4 g

O=C(O)CSc1nnc(Br)n1-c1ccc(C2CC2)c2ccccc12
body weight (KM mouse, chronic hyperuricaemia model; dose not given, day 20): 31.2 g and 35.8 g and 32 g and 39.4 g and 34.6 g and 37.4 g

A few entries again:
O=C(O)CSc1nnc(Br)n1-c1ccc(C2CC2)c2ccccc12
body weight (KM mouse, chronic hyperuricaemia model; dose not given, day 20): 31.2 g and 35.8 g and 32 g and 39.4 g and 34.6 g and 37.4 g
